Published values pooled from the literature.
A part holds a random share of what one study measured.
Chain of UniProt Q5XXA6 (whole entry, unmodified, looked up): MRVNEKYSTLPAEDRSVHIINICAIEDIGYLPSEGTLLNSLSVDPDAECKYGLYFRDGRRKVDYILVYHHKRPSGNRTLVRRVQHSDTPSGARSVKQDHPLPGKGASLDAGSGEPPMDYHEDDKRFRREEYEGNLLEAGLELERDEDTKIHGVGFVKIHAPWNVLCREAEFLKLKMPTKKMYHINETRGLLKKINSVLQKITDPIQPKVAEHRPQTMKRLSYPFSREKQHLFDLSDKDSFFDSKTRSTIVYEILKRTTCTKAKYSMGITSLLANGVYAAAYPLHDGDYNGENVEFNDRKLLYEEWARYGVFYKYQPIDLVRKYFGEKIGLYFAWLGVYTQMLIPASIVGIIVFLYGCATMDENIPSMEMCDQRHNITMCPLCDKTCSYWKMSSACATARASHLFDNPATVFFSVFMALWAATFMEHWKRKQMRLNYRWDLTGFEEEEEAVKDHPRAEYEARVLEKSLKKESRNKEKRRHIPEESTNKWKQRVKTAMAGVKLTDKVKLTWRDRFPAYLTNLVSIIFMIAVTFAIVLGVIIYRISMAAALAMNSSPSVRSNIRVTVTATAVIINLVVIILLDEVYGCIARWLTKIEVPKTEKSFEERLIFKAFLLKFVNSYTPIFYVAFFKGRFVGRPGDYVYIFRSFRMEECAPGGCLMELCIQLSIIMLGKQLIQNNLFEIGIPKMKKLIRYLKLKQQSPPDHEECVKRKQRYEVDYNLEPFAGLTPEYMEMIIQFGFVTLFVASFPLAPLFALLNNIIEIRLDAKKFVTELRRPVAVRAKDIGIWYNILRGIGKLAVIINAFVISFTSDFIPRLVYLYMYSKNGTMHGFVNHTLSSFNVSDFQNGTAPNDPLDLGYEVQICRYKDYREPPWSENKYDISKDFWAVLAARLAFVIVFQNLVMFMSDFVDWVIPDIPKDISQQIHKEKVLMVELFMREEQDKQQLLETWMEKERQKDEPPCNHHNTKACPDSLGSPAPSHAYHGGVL
Chain of UniProt Q5VT25 (whole entry, looked up): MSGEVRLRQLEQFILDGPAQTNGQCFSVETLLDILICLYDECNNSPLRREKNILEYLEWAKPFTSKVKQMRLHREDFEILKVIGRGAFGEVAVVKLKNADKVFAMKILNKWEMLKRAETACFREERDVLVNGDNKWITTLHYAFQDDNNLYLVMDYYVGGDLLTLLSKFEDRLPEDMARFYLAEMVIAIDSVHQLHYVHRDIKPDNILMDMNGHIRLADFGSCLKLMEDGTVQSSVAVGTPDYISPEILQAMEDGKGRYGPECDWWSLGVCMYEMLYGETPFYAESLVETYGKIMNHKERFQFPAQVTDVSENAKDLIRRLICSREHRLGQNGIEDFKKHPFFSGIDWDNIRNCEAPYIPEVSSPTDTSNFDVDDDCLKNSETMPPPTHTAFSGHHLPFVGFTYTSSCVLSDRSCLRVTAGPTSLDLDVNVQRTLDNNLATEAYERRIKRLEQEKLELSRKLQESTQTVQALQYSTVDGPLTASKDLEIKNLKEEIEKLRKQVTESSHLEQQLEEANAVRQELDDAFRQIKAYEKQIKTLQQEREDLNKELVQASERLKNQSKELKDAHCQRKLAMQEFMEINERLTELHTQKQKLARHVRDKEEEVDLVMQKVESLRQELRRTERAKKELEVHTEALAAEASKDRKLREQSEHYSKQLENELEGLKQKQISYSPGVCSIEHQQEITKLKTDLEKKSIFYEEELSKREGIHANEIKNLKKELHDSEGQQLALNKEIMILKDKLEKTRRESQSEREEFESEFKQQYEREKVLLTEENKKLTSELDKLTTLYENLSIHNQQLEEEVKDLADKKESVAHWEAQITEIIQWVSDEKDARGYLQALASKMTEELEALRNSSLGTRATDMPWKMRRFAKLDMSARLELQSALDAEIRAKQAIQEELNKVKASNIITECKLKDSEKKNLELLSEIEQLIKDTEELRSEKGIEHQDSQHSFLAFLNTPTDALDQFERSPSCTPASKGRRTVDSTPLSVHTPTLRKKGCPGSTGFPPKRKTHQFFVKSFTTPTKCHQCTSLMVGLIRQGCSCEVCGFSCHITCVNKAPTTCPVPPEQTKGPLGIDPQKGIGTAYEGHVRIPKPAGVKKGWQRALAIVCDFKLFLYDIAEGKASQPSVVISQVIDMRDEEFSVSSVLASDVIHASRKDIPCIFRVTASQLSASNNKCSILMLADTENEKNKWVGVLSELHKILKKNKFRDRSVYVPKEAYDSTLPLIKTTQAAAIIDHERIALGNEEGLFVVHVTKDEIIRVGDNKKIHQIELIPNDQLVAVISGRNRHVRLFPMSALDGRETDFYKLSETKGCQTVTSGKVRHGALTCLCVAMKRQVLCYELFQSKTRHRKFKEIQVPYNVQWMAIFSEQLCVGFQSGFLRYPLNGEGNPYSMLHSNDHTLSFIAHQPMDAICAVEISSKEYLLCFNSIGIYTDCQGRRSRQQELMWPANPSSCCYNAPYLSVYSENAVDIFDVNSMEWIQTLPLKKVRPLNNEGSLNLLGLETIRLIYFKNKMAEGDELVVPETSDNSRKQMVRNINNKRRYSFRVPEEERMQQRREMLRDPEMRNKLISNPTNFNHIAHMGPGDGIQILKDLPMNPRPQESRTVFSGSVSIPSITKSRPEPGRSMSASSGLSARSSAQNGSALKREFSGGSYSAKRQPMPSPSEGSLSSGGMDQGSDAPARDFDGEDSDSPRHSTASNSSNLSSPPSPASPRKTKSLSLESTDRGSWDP
Chain of UniProt Q9BZL6 (whole entry, looked up): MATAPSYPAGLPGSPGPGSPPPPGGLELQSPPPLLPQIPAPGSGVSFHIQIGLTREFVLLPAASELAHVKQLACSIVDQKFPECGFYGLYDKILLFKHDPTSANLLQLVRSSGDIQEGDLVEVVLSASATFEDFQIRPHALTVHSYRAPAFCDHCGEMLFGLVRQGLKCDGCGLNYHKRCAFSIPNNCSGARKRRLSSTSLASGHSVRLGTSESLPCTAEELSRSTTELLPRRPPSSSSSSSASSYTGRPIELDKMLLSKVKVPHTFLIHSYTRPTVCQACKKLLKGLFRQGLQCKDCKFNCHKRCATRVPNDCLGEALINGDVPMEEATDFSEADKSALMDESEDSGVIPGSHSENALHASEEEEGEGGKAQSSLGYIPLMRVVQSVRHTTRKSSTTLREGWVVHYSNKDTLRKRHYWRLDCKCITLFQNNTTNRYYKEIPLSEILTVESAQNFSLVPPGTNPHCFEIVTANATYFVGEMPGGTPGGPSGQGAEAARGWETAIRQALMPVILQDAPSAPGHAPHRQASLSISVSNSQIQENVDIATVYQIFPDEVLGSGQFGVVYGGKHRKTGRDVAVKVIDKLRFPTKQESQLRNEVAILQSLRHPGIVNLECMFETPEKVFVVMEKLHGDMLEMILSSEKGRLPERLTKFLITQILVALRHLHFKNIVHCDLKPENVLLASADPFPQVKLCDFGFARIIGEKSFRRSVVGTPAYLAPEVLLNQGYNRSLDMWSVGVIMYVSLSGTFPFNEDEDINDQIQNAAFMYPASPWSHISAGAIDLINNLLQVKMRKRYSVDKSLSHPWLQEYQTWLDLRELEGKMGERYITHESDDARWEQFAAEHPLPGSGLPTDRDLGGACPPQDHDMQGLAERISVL

Series 1
SMILES: COc1ccc(-c2c(Nc3ccccn3)[nH]c3c(C4=CCCCC4)c(-c4ccccc4)nn3c2=O)cc1
Medium: plasma
Route: oral
Endpoint: plasma concentration, geometric mean
human patients; 200 mg once daily, 0.5 h, cycle 1: 4380 ng/mL
LC-MS/MS; human; 50 mg once daily, 24 h, cycle 1: 1140 ng/mL
cancer patients; 200 mg, 1 h post-dose, single dose: 236 ng/mL
human patients; 400 mg once daily, 6 h, cycle 1: 2680 ng/mL
cancer patients; 100 mg, 4 h post-dose, single dose: 1060 ng/mL
cancer patients; 400 mg, 24 h post-dose, single dose: 633 ng/mL
human patients; 150 mg once daily, 0 h, cycle 1: 3030 ng/mL

Series 2
Cell line: A-375
Tested at: 100 µM
Time: 18 h
Endpoint: viability
C=CC(=O)Nc1cccc(Nc2nc(Nc3ccc(N4CCN(C(C)=O)CC4)cc3OC)ncc2C(F)(F)F)c1: 14.5%
c1cnc(N2CCN(Cc3ccc4c(c3)OCO4)CC2)nc1: 93.1%
CN1C(C)(C)CCCC1(C)C: 84.6%
COCC(=O)Nc1c(I)c(C(=O)NCC(O)CO)c(I)c(C(=O)N(C)CC(O)CO)c1I (mixture of isomers): 102%

Series 3
SMILES: O=C(N1CCS(=O)(=O)CC1)N1C[C@H](c2ccc(OC(F)(F)F)cc2)C[C@H](c2nc(C3CC3)no2)C1
Read-out: cell-free assay
Method: competition with immobilised ligand
Tested at: 1 µM
Endpoint: remaining binding
Tyrosine-protein kinase ABL1, phosphorylated (ABL1, Homo sapiens, UniProt P00519, Q252H): 100%
PIP5K1A (Homo sapiens, UniProt Q99755): 100%
PRKD2 (Homo sapiens, UniProt Q9BZL6): 100%
CDC42BPA (Homo sapiens, UniProt Q5VT25): 100%
MET (Homo sapiens, UniProt P08581): 100%

Series 4
Target: Angiopoietin-1 receptor (TEK, Homo sapiens, UniProt Q02763)
Chain of UniProt Q02763 (whole entry, looked up): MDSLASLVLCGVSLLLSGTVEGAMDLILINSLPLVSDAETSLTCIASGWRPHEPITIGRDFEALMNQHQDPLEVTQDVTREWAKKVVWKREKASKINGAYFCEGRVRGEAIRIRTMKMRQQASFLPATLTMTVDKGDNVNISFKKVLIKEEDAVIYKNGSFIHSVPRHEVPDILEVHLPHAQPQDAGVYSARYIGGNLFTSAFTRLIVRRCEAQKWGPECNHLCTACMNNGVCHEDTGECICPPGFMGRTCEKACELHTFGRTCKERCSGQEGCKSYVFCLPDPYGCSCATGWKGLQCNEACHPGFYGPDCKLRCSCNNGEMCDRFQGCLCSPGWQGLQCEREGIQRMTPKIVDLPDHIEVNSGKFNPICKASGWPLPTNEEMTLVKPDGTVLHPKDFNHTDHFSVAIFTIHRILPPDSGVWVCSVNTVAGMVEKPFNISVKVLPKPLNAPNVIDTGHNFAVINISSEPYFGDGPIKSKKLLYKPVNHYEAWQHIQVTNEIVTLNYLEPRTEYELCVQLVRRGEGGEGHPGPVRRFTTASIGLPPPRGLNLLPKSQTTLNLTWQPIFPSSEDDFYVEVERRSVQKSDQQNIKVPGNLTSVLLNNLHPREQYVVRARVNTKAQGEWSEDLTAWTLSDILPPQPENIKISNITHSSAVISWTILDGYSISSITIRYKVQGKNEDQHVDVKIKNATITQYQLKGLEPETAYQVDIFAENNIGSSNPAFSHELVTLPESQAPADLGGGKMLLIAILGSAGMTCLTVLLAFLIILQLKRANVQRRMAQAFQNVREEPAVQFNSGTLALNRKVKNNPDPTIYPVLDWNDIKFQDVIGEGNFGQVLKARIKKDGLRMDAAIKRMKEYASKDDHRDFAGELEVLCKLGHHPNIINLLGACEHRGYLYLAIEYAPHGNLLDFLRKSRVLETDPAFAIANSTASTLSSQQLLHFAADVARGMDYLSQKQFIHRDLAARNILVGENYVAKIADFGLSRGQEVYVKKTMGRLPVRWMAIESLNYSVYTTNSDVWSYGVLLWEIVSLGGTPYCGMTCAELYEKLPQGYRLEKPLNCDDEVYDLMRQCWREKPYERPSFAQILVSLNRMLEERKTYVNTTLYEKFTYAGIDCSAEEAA
Read-out: enzyme activity
Action: inhibitor
Tested at: 0.5 µM
Relative to: control
Endpoint: remaining activity
Nc1ccc2ncnc(NCCc3ccc(Oc4ccccc4)cc3)c2c1: 99%
Cn1c2ccccc2c2c3c(c4c5ccccc5n(CCC#N)c4c21)CNC3=O: 104%
O=S(=O)(c1cccc2cnccc12)N1CCCNCC1: 98.4%
COc1ccc(OC)c2c(=S)c3ccccc3[nH]c12: 100%
Cn1sc(=O)n(Cc2ccccc2)c1=O: 90.9%
COc1ccc(C(=O)Nc2sc3c(c2C(N)=O)CCCC3)cc1OC: 96.4%
Oc1ccc(-c2nc(-c3ccncc3)c(-c3ccc(F)cc3)[nH]2)cc1: 99.6%
NCCNc1ncc(C(N)=O)c(Nc2cccc(C(F)(F)F)c2)n1: 97.7%
OCC(O)CCON=C1C(c2c(O)[nH]c3ccccc23)=Nc2ccccc21 (stereo not drawn): 101%
C#Cc1cccc(Nc2ncnc3cc(OCCOC)c(OCCOC)cc23)c1: 94%
O=C(O)c1ccc2c3c1cccc3c(=O)n1c3ccccc3nc21: 102%
O=C(Nc1cccc(Nc2cc(Nc3cccc(C(F)(F)F)c3)ncn2)c1)C1CC1: 101%
N#CC(C#N)=C(N)/C(C#N)=C/c1ccc(O)cc1: 104%

Single results of other studies
C=CCc1ccc(O)c(-c2cc(CC=C)ccc2O)c1  remaining current (Anoctamin-1 (ANO1, Homo sapiens, UniProt Q5XXA6, del476-501); chloride current, inhibitor, whole-cell voltage clamp; 10 µM, wild type, with: 300 nM Ca2+; relative to: maximum): ~70%
